# Published values of several laboratories.
# Numbered parts are unrelated; each lists some results of a single study. Changes are numbered by the printed parent chain.

# Series 1
# Target: UBE2E3 UBC core domain (UniProt Q969T4)
# UniProt Q969T4, sequence (whole entry, looked up): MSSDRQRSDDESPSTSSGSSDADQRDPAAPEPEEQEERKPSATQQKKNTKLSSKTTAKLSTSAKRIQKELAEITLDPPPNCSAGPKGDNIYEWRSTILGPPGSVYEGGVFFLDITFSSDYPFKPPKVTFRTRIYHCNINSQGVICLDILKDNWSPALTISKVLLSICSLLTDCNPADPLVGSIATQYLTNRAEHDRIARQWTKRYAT
# Method: yeast two-hybrid
# Sample: yeast
# Notes: mostly zero background
# Baseline: not given
# Direction: higher = stronger interaction
# B1: RNF122 RING domain (UniProt Q9H9V4); chain AKKLQLYGQTCAVCLEDFKGKDELGVLPCQHAFHRKCLVKWLEVRCVCPMCNKPIASPSEAT
# B2: MEX3B RING domain (UniProt Q6ZN04); chain SGLRRKGSRDCSVCFESEVIAALVPCGHNLFCMECANRICEKSEPECPVCHTAVTQAIRIF
# B3: DEF8 RING domain (UniProt Q6ZN54); chain AGRLGCSLTEIHTLFAKHIKLDCERCQAKGFVCELCREGDVLFPFDSHTSVCADCSAVFHRDCYYDNSTTCPKCARLSLRK
# B4: TRIM31 RING domain (UniProt Q9BZY9); chain FVNKLQEEVICPICLDILQKPVTIDCGHNFCLKCITQIGETSCGFFKCPLCKTSVRKNAIRF
# B5: MYCBP2 RING domain (UniProt O75592); chain TSLKQDADDMCMICFTEALSAAPAIQLDCSHIFHLQCCRRVLENRWLGPRITFGFISCPICKNKINHIVLKD
Molecule,lacZ reporter activity
RYRQMEERITCPICIDSHIRLVFQCGHGACAPCGSALSACPICRQPIRDRIQIF (MIB2 RING domain (UniProt Q96AX9)),0
YPEEVDDDLICHICLQALLDPLDTPCGHTYCTLCLTNFLVEKDFCPMDRKPLVLQHCKK (LNX1 RING domain (UniProt Q8TBB1)),0
B1 (RNF122 RING domain),0
AEADPLGRFTCPVCLEVYEKPVQVPCGHVFCSACLQECLKPKKPVCGVCRSALAPGVRAV (RNF114 RING domain (UniProt Q9Y508)),0
B2 (MEX3B RING domain),0
B3 (DEF8 RING domain),0
FVKTVEDKYKCEKCHLVLCSPKQTECGHRFCESCMAALLSSSSPKCTACQESIVKDKVF (TRAF3 RING domain (UniProt Q13114)),0
B4 (TRIM31 RING domain),0
B5 (MYCBP2 RING domain),0

# Series 2
# Target: Cellular tumor antigen p53, full length (TP53, Homo sapiens, UniProt P04637, residues 1-393)
# Method: protein-binding microarray
# Form: hairpin DNA
# Sample: in vitro
# Tested at: not given
# Notes: whole hairpin DNA, median over replicate spots
# Baseline: not given
# Direction: higher = stronger binding
Oligonucleotide,median fluorescence
CGGACATGCCCGGGCATGTCTCCTGACATGCCCGGGCATGTCCGACACTC (5mC at 37),20000 a.u.
CGGACATACCCGGGCATGTCTCCTGACATGCCCGGGTATGTCCGACACTC,10300 a.u.
CCACACGTGGTGCGATGCCTTCCTAGGCATCGCACCACGTGTGGACACTC,4560 a.u.
CCACACGTGGTGGCATGCCTTCCTAGGCATGCCACCACGTGTGGACACTC (5mC at 4),7410 a.u.
CCACACGTGGTGGCGTGCCTTCCTAGGCACGCCACCACGTGTGGACACTC (5mC at 14 30),4980 a.u.
CGGACATGCCGGGGCATGTCTCCTGACATGCCCCGGCATGTCCGACACTC (5mC at 34),17200 a.u.
CCACGCGTGGTGGCATGCCTTCCTAGGCATGCCACCACGCGTGGACACTC (5mC at 4 40),7780 a.u.
CGGACATGCCCGGCGATGTCTCCTGACATCGCCGGGCATGTCCGACACTC,10100 a.u.
CCACACCGGGTGGCATGCCTTCCTAGGCATGCCACCCGGTGTGGACACTC (5mC at 7),6830 a.u.
CCACACGTGGTGGCGTGCCTTCCTAGGCACGCCACCACGTGTGGACACTC (5mC at 30),6140 a.u.
CCACACGTGGTGGCATGCCTTCCTAGGCATGCCACCACGTGTGGACACTC (5mC at 6),7650 a.u.
CGGACATGCCCGGCGATGTCTCCTGACATCGCCGGGCATGTCCGACACTC (5mC at 14),9920 a.u.
CGGACATGCCCGGGCATGTCTCCTGACATGCCCGGGCATGTCCGACACTC (5mC at 5),20300 a.u.
CCACACGTGGTGGCATGCCTTCCTAGGCATGCCACCACGTGTGGACACTC (5mC at 33),6620 a.u.
CGGACATGCCGGGGCATGTCTCCTGACATGCCCCGGCATGTCCGACACTC (5mC at 10),15300 a.u.
CCACCCGTGGTGGCATGCCTTCCTAGGCATGCCACCACGGGTGGACACTC,6480 a.u.
CCACACGCGGTGGCATGCCTTCCTAGGCATGCCACCGCGTGTGGACACTC,6860 a.u.
CGGACATGCCCGGCGATGTCTCCTGACATCGCCGGGCATGTCCGACACTC (5mC at 30),11100 a.u.

# Series 3
# Target: CCNF, cyclin fold, Cln2 fusion (human)
# Method: yeast growth competition, sequencing
# Sample: yeast
# Notes: weak parent motif
# Baseline: not given
# Direction: higher = stronger binding
# Parent: CDAN1 docking peptide (human); RGARSQLFPPTEA
Substitution,normalised enrichment score
P10A,1.2
Q6A,0.271
R4A,-0.0047
R1A,0.226
S5A,1.6

# Series 4
# Target: Ras GTPase-activating protein-binding protein 1, C-terminal RGG region (G3BP1, Homo sapiens, UniProt Q13283)
# UniProt Q13283, sequence (whole entry, looked up): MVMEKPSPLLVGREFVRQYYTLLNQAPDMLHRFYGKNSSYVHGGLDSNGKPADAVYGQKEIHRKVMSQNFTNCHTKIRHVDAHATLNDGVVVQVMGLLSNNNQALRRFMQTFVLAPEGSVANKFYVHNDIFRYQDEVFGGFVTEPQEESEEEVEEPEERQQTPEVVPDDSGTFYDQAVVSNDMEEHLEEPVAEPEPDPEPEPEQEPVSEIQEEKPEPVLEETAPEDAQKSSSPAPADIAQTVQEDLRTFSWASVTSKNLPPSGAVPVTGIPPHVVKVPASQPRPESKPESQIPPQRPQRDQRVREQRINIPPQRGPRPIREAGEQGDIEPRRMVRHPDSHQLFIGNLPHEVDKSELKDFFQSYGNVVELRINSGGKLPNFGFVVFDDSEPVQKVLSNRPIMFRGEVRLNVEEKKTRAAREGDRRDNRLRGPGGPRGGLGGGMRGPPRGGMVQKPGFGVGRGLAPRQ
# Method: RNA Bind-n-Seq
# Form: RNA
# Sample: in vitro
# Tested at: 1 µM
# Notes: whole 134-nt RNA, ends assumed
# With: 150 mM KCl
# Baseline: input library
# Direction: higher = stronger binding
Oligonucleotide,log2 enrichment
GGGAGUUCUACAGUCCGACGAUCAGUCCUGUGCUACACAUCGUAUGUACCGAAUCGGUUUUGGGGUUUUGGGGUUUUGGGAAAGUAUUAUGUUACGCCGUUCGGAUCUGCACUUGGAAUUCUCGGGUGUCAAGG,-0.596
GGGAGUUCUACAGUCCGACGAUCAAGUCCUGUGCUACACAUCGUAUGUACCGAAUCGGAAAGGAAAAAAAGGAAAAAGGAAAGUAUUAUGUUACGCCGUUCGGAUCUGCACUUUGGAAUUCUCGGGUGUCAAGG,-2.05
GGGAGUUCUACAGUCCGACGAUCCCUCAAGUCCUGUGCUACACAUCGUAUGUACCGAAUCGGGAGGGGAGGGAGGAAAGUAUUAUGUUACGCCGUUCGGAUCUGCACUUCCAGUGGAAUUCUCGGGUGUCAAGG,0.49
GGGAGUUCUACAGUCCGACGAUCAAGUCCUGUGCUACACAUCGUAUGUACCGAAUCGGGUUUGGGUGGGUUUUUUUGGGAAAGUAUUAUGUUACGCCGUUCGGAUCUGCACUUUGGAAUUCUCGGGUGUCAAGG,1.11
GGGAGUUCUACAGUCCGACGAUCUCCUCAAGUCCUGUGCUACACAUCGUAUGUACCGAAUCGGGAGGGAGGAGGAAAGUAUUAUGUUACGCCGUUCGGAUCUGCACUUCCAGCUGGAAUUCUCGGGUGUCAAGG,-1.14
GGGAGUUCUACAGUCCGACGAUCGUCCUGUGCUACACAUCGUAUGUACCGAAUCAAAUUUAAACCCCCAAAUUUUUUUAAAAAAGUAUUAUGUUACGCCGUUCGGAUCUGCACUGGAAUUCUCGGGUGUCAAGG,-0.312
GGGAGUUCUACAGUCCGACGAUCUCCUCAAGUCCUGUGCUACACAUCGUAUGUACCGAAUCGGAGGAAAGGAGGAAAGUAUUAUGUUACGCCGUUCGGAUCUGCACUUCCAGCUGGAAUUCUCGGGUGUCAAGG,-1.35
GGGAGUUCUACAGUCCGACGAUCCACAGACAACACGCACCCACACAGACACAGAGGGAAGGGGUUGGGAUGGGGACAGGGUGCACAGCAGGGCGGGGUAAGACCCCAGCCCCUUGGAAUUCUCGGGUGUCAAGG,-0.924
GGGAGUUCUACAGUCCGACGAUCAGUCCUGUGCUACACAUCGUAUGUACCGAAUCAAAUUUUUAAAUUUUUAAACCCAAAAAAGUAUUAUGUUACGCCGUUCGGAUCUGCACUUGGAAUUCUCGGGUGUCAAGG,-1.04
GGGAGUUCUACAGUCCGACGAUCCUCAAGUCCUGUGCUACACAUCGUAUGUACCGAAUCGGGGUUGGGGUUGGUUGGAAAGUAUUAUGUUACGCCGUUCGGAUCUGCACUUCCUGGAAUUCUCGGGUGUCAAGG,0.00189

# A few entries again (series 1):
Molecule,lacZ reporter activity
B2 (MEX3B RING domain),0
B5 (MYCBP2 RING domain),0
AEADPLGRFTCPVCLEVYEKPVQVPCGHVFCSACLQECLKPKKPVCGVCRSALAPGVRAV (RNF114 RING domain (UniProt Q9Y508)),0
B3 (DEF8 RING domain),0
B4 (TRIM31 RING domain),0
RYRQMEERITCPICIDSHIRLVFQCGHGACAPCGSALSACPICRQPIRDRIQIF (MIB2 RING domain (UniProt Q96AX9)),0
